Measurements pooled from the literature.
Compare with care: the assays were run in different laboratories. ± gives the spread as reported.

Compound	cell line	assay	conditions	EC50
[Ru+2].c1ccc(-c2ccc3c(n2)c2ncccc2c2nc4cc5ccccc5cc4nc32)nc1.c1ccc(-c2ccc3c(n2)c2ncccc2c2nc4cc5ccccc5cc4nc32)nc1	M1 murine macrophages	cell viability, MTT	1 h, blue light 56 J/cm2	2200 ± 400 nM
CCCCCCCCCCCCCCCC(=O)N[C@@H](CCC(=O)NCCCC[C@H](NC(=O)[C@H](CC(=O)O)NC(=O)[C@H](CO)NC(=O)[C@@H](NC(=O)[C@H](Cc1ccccc1)NC(=O)[C@@H](NC(=O)CNC(=O)[C@H](CCC(N)=O)NC(=O)[C@H](CO)NC(=O)[C@@H](N)Cc1c[nH]cn1)[C@@H](C)O)[C@@H](C)O)C(=O)N[C@@H](CO)C(=O)N[C@@H](CCC(=O)O)C(=O)N[C@@H](Cc1ccc(O)cc1)C(=O)N[C@@H](CC(C)C)C(=O)N[C@@H](CC(=O)O)C(=O)N[C@@H](CO)C(=O)N[C@@H](CCC(=O)O)C(=O)N[C@@H](CCCNC(=N)N)C(=O)N[C@@H](C)C(=O)N[C@@H](CCCNC(=N)N)C(=O)N[C@@H](CC(=O)O)C(=O)N[C@@H](Cc1ccccc1)C(=O)N[C@H](C(=O)N[C@@H](C)C(=O)N[C@@H](Cc1c[nH]c2ccccc12)C(=O)N[C@@H](CC(C)C)C(=O)N[C@@H](CCC(=O)O)C(=O)N[C@@H](C)C(=O)NCC(=O)NCC(=O)O)C(C)C)C(=O)O	human EndoC-βH1 β-cells	cAMP accumulation, agonist	added: 0.1% BSA	1.05 ± 0.316 nM
Cc1cc2nc(NC(=O)C3CC3)sc2cc1Oc1ccc(F)c(NC(=O)Cc2cccc(C(F)(F)F)c2)c1	HT-29	necroptosis, CellTiter-Glo	added: TNF, SMAC mimetic and zVAD (TSZ)	60 ± 7 nM
NS(=O)(=O)NCC(O)c1ccccc1F (stereo not shown)	rat hippocampal neurons	neuroprotection	medium without antioxidants, added: glutamate 30 µM for 5 min	3 nM
Cc1ccc2c(n1)c1nc(C)ccc1c1nc3cc4ccccc4cc3nc21.[Ru+2].c1ccc(-c2cccc(-c3ccccn3)n2)nc1.c1ccncc1	M1 murine macrophages	cell viability, MTT	1 h, blue light 56 J/cm2	230 ± 140 nM
Cc1nc(C)c(C(=O)Nc2ccc(F)c(-c3nc4ncc(-c5ccccn5)cn4n3)c2)o1	NIH3T3	ubiquitylated protein accumulation		> 10000 nM
Cc1ccc(CNC(=O)[C@H](CCCCNC(=O)OCc2ccccc2)NC(=O)[C@H](CC2CCCCC2)NC(=O)Cc2cccnc2)cc1	HFF	cell viability	72 h	> 100000 nM
CSCC[C@H](NC(=O)[C@H](CO)NC(=O)[C@@H](N)CO)C(=O)N[C@@H](CCCCN)C(=O)N[C@@H](CC(C)C)C(=O)N[C@@H](CO)C(=O)N[C@@H](Cc1ccccc1)C(=O)N[C@@H](CCCNC(=N)N)C(=O)N[C@@H](C)C(=O)N[C@@H](CCCNC(=N)N)C(=O)N[C@@H](C)C(=O)N[C@@H](Cc1ccc(O)cc1)C(=O)NCC(=O)N[C@@H](Cc1ccccc1)C(=O)N[C@@H](CCCNC(=N)N)C(=O)NCC(=O)N1CCC[C@H]1C(=O)NCC(=O)N1CCC[C@H]1C(=O)N[C@@H](CCC(N)=O)C(=O)N[C@@H](CC(C)C)C(=O)O	primary hepatocytes			~43.4 nM
C=CC(=O)N1CCC(c2cc(C(=O)O)n(C)n2)CC1	AP1-luc HEK293	AP1 reporter gene, activator, luciferase	added: FBS stimulation	260 nM
COC(=O)[C@]1(C)C=C(C(=O)Nc2cccc(C(=O)Nc3ccc(Nc4nccc(-c5cccnc5)n4)c(C)c3)c2)C(=O)CC1	SH-SY5Y MKK7 inducible	c-Jun Ser73 phosphorylation, inhibitor, western blot, refers to: phospho-c-Jun Ser73	6 h, added: doxycycline	320 ± 120 nM
O=C(Cc1cccc(C(F)(F)F)c1)Nc1cc(Oc2ccc3nc(NC(=O)C4CC4)sc3c2C(=O)O)ccc1F	HT-29	necroptosis, CellTiter-Glo	added: TNF, SMAC mimetic and zVAD (TSZ)	> 10000 nM
Cn1nc(I)c2c(N)ncnc21	LC-2/ad, RET-CCDC6 fusion	cell viability		1000 nM
Cc1ccc(CNC(=O)[C@@H](NC(=O)[C@H](CCc2ccccc2)NC(=O)[C@H](CCc2ccccc2)N(C)Cc2cnccn2)C(C)C)cc1	HFF	cell viability	72 h	61000 nM
O=C(Cc1cccc(C(F)(F)F)c1)Nc1cc(Oc2cc3sc(NC(=O)C4CC4)nc3cc2Br)ccc1F	HT-29	necroptosis, CellTiter-Glo	added: TNF, SMAC mimetic and zVAD (TSZ)	170 ± 20 nM
Cc1ccc(CNC(=O)[C@H](CCc2ccccc2)NC(=O)[C@@H](N)CCc2ccccc2)cc1	HFF	cell viability	72 h	> 50000 nM
FC(F)(F)c1ccnc(-c2cc(C(F)(F)F)ccn2)c1.FC(F)(F)c1ccnc(-c2cc(C(F)(F)F)ccn2)c1.[Cl-].[Cl-].[Ru+2].c1csc(-c2ccc(-c3ccc(-c4ccc(-c5nc6c7cccnc7c7ncccc7c6[nH]5)s4)s3)s2)c1	SK-MEL-28	cell viability	hypoxia 1% O2, added: green light 523 nm	1000 nM
Cc1cc2cc(O)c(O)cc2c(O)c1-c1c(C)cc2cc(O)c(O)cc2c1O	RS11846	apoptosis, annexin V/PI flow cytometry	1-2 d	24700 nM
Cc1ccc(CNC(=O)[C@@H](NC(=O)[C@H](CCc2ccccc2)NC(=O)[C@H](CCc2ccccc2)N(C)C)C(C)C)cc1	HFF	cell viability	72 h	14000 nM
NS(=O)(=O)NCC(F)(F)c1ccccc1F	rat hippocampal neurons	neuroprotection, propidium iodide	added: glutamate 30 µM, 5 min	0.13 nM
FC(F)(F)c1ccnc(-c2cc(C(F)(F)F)ccn2)c1.FC(F)(F)c1ccnc(-c2cc(C(F)(F)F)ccn2)c1.[Cl-].[Cl-].[Ru+2].c1csc(-c2ccc(-c3ccc(-c4nc5c6cccnc6c6ncccc6c5[nH]4)s3)s2)c1	SK-MEL-28	cell viability	normoxia, added: green light 523 nm, 100 J/cm2	270 nM
O=C(Cc1cccc(C(F)(F)F)c1)Nc1cc(Oc2cc(Br)c3nc(NC(=O)C4CC4)sc3c2)ccc1F	HT-29	necroptosis, CellTiter-Glo	added: TNF, SMAC mimetic and zVAD (TSZ)	> 10000 nM
Cc1ccc(CC(=O)c2c(O)c(O)cc3c(O)c(-c4c(C)cc5c(C(=O)Cc6ccc(C)cc6)c(O)c(O)cc5c4O)c(C)cc23)cc1	RS11846	ATP-lite viability	72 h	2200 nM
